Measured values gathered from unrelated publications.
Several values in a cell are separate wells, animals, samples, runs or records. ± marks the error that the study gave.

Compound | target or system | test | system | conditions | how to read | quantity | result
Cc1cc(=O)[nH]n1-c1nc(-c2ccc(Cl)cc2)c2c(NC(=O)c3ccccc3)nnc-2[nH]1 | Malme-3M | SRB | – | 10 µM, NCI60 single-dose screen | baseline: untreated | cell growth | 90.1%
C/C=C/C/C=C/CCC(=O)[C@H]1O[C@H]1C(N)=O | MCF-10A | CellTiter-Glo | – | concentration not given, replicate D | baseline: normalised luminescence | viability | 73.2%
CCCCN1CCN(c2ccc3[nH]c(-c4ccc5[nH]c(-c6cc(OC)c(OC)c(OC)c6)nc5c4)nc3c2)CC1 | Malme-3M | SRB | – | 10 µM, 48 h | – | growth percent | 21.1%
CC(=O)OC[C@H]1O[C@@H]([S-])[C@H](OC(C)=O)[C@@H](OC(C)=O)[C@@H]1OC(C)=O.CCP(CC)CC.[Au+] | Toxoplasma gondii | parasite growth | HFF, bradyzoite, glutamine-induced | – | – | EC50 | 412 nM
COc1cnc2cccc(N3CCc4c(cc(Cn5ccnc5C)cc4-c4cn(C)nc4C(F)(F)F)C3=O)c2c1 | COLO-668 | cell growth, inhibitor | – | 120 h | – | EC50 | 450 nM
O=C(/C=C/C=C/C=C/C1CCCCC1)NC1=C[C@@](O)(/C=C/C=C/C=C/C(=O)NC2=C(O)CCC2=O)[C@@H]2O[C@@H]2C1=O | NCI-H1792 | cell growth, CellTiter-Glo | – | 78 h | – | GI50 | 24.4 µM
C=C1C(=O)O[C@H]2[C@H]1CC/C(C)=C/CC[C@@]1(C)O[C@@H]21 | Toxoplasma gondii | parasite growth, luciferase reporter | HFF, tachyzoite | 72 h | – | EC90 | 24.7 µM
N#Cc1ccc(C[C@H](Nc2c(Nc3ccc(F)cc3)c(=O)c2=O)C(=O)N2CCc3ccccc32)cc1 | human neutrophils | calcium mobilization, agonist | – | – | – | EC50 | 900 ± 400 nM
[Cl-].[Cl-].[Os+2].c1cnc2c(c1)ccc1cccnc12.c1cnc2c(c1)ccc1cccnc12.c1cnc2c(c1)ccc1cccnc12 | SK-MEL-28 | cell growth, SRB | – | red light 633 nm, normoxia | – | TGI | 32.9 µM
Cn1cc(-n2cnc3c(NCc4nc5cc(Cl)c(Cl)cc5[nH]4)nc(N4CCOCC4)nc32)cn1 | MDA-MB-468 | cell viability, CellCounting-Lite | – | 222.2 nM, 37 °C | higher = more viable cells | luminescence signal | 31300 a.u. and 41400 a.u. and 33700 a.u.
C=CC1=C(C)c2cc3[n-]c(cc4nc(cc5[n-]c(cc1n2)c(C)c5C=C)C(C)=C4CCC(=O)O)c(CCC(=O)O)c3C.[Zn+2] | SH-SY5Y | RNA-seq, measured: SYNJ2 mRNA | – | 5 µM, 5 h | baseline: untreated cells | fold change | 2.71
C=CC(=O)N1CCC(COCC(=O)N2CCN(c3nc(-c4cnc(N)nc4C(F)F)nc(N4CCOC[C@@H]4C)n3)CC2)CC1 | MDA-MB-453 | resazurin growth rate inhibition | – | 72 h | – | GR50 | 0.8 nM
CC(=O)c1n[nH]c2ccc(-c3cnc4ccc(N(C)C5CCOCC5)nn34)cc12 | DAP12-Fluc expressing cells | – | – | concentration not given, counter-screen | – | change in reporter signal | 24 ± 6%
Cn1cc(-c2ccc(-c3cncc(Cl)c3N3CCC4(CCNC4=O)CC3)cc2)cn1 | COLO 205 | microarray, measured: CDKN2C | – | concentration not given, 6 h, gene set p18 | baseline: untreated cells | fold change in expression | -1.64
S=C([S][Au-][P+](CCCCCC[P+]([Au-][S]C(=S)n1cccn1)(c1ccccc1)c1ccccc1)(c1ccccc1)c1ccccc1)n1cccn1 | MDA-MB-231/ATCC | cell growth, NCI-60 screen | – | breast cancer | – | log TGI | > -4 log10 M
Cc1nn(-c2nc3c(F)cc(F)cc3s2)c(O)c1C(c1ccc(C(F)(F)F)cc1)c1c(C)nn(-c2nc3c(F)cc(F)cc3s2)c1O | RAW-ISG | western blot | – | 10 µM, with: HT-DNA | baseline: vehicle | phospho-IRF3/IRF3 ratio | 0.705 and 0.698 and 0.577
CC(=O)c1nn(-c2ccc(Cl)cc2)/c(=N/N=C(\C)c2ccc(NC(=O)c3ccccc3)cc2)s1 | MCF7 | – | – | 0.625 µM | – | toxicity | 88.4% and 96.2%
CCOC(=O)c1nn(-c2cccc(Cl)c2)/c(=N/N=C(\C)c2ccc(NC(=O)c3ccc(Cl)cc3)cc2)s1 | MCF7 | MTT | – | 1.25 µM | – | cytotoxicity | 96.6%
CCc1cnc(N2CCC(c3nc(COc4ccc(-n5cnnn5)cc4)cs3)CC2)nc1 | HEK-293T | RNA-seq GSEA, measured: HALLMARK_MITOTIC_SPINDLE | – | concentration not given | direction not given | normalized enrichment score | 0.759
Nc1cccc2c1C(=O)N(C1CCC(=O)NC1=O)C2=O (stereo not shown) | RPMI-8226 | flow cytometry, measured: CD127 | – | concentration not given | baseline: comparator compound alone | surface marker level | 188%
O=S(=O)(O)O | human neutrophils | anion exchange, substrate, sulfate influx | – | external binding site, with: Cl- | – | Km | 13.7 mM
Cc1cc(C)nc(SCC(=O)Nc2ncc(Cc3cccc(OCc4cn(Cc5ccc(OCCN6CCOCC6)cc5)nn4)c3)s2)n1 | PC-3M-luc | cell viability, MTS | – | 10 µM | – | inhibition | 30.9 ± 2.2%

Excerpt of the above:
Compound | target or system | test | system | conditions | how to read | quantity | result
CCCCN1CCN(c2ccc3[nH]c(-c4ccc5[nH]c(-c6cc(OC)c(OC)c(OC)c6)nc5c4)nc3c2)CC1 | Malme-3M | SRB | – | 10 µM, 48 h | – | growth percent | 21.1%
